# Published values from different studies.
# Lines come from different studies, so protocols differ. Numbers after ± are the reported error.
SMILES,assay,test system,conditions,how to read,endpoint,value
CN[C@H](CC(C)C)C(=O)N[C@H]1C(=O)N[C@@H](CC(N)=O)C(=O)N[C@H]2C(=O)N[C@H]3C(=O)N[C@H](C(=O)N[C@H](C(=O)O)c4cc(O)cc(O)c4-c4cc3ccc4O)[C@H](O)c3ccc(c(Cl)c3)Oc3cc2cc(c3O[C@@H]2O[C@H](CO)[C@@H](O)[C@H](O)[C@H]2O[C@H]2C[C@](C)(N)[C@H](O)[C@H](C)O2)Oc2ccc(cc2Cl)[C@H]1O,starch gel membrane permeability,Gram-negative envelope surrogate,"200 µM, 90 min, pH 7.4",,amount permeated,1.87 nmol
Cn1cnc2c1c(=O)[nH]c(=O)n2C,,"human, both sexes, cerebrospinal fluid",,,samples above LOQ,96.7%
NS(=O)(=O)c1cc(C(=O)O)c(NCc2ccco2)cc1Cl,measured: arthropod bite,healthy men,"oral, 8 days, treatment-emergent, crossover trial",,subjects with adverse event,0%
O=C(O)CCC(=O)O.[2H]C([2H])([2H])Oc1cc(C)c2[nH]ccc2c1CN1CC[C@@H](C2CC2)C[C@H]1c1ccc(C(=O)O)cc1,multiple ascending dose,healthy Chinese subjects,200 mg once daily,,subjects with TEAE Eczema,0%
CC[C@H]1OC(=O)[C@H](C)[C@@H](O[C@H]2C[C@@](C)(OC)[C@@H](O)[C@H](C)O2)[C@H](C)[C@@H](O[C@@H]2O[C@H](C)C[C@H](N(C)C)[C@H]2O)[C@](C)(O)C[C@@H](C)C(=O)[C@H](C)[C@@H](O)[C@]1(C)O,starch gel membrane permeability,Gram-negative envelope surrogate,"200 µM, 60 min, pH 7.4",,amount permeated,0.97 nmol
CCN1/C(=C/C(C)=O)Sc2ccc(F)cc21,,cynomolgus monkey,"oral, 30 mg/kg, 4 h post-dose",,QRS duration,36 ± 1 ms
O=C(Nc1nc2cccc(-c3ccc(CN4CCS(=O)(=O)CC4)cc3)n2n1)C1CC1,,rheumatoid arthritis patients,"oral, 100 mg twice daily, 4 weeks, TEAE regardless of relatedness",,patients with Somnolence,8.3%
C[C@H]1Oc2cc(cnc2N)-c2c(nn(C)c2C#N)CN(C)C(=O)c2ccc(F)cc21,,"human patients, plasma","oral, dose not given, cycle 2 day 1, mean, with: avelumab",,"AUCtau, dose-normalized",64 ng·h/mL/mg
Cn1nc2c(=O)n(C3CC3)ccc2c1[C@](O)(c1cnc(C(F)(F)F)c(Cl)c1)C(F)(F)F,,"rat Sprague-Dawley male, plasma","intravenous, 1 mg/kg",,CL,0.109 ± 0.0102 L/h/kg
CN1C(=O)[C@@H](NC(=O)c2nnc(Cc3ccccc3)[nH]2)COc2cccnc21,,"human, plasma","oral, 100 mg once daily, day 1, geometric mean",,Cmax,1.9 µg/mL
CC(F)(F)c1nc2nc(CO)cc(Nc3ccc(S(F)(F)(F)(F)F)cc3)n2n1,LC-MS/MS,"malaria patients, plasma","oral, 600 mg of parent drug",,"Cmax, metabolite",0.897 µg/mL
CCOc1c([C@H](C)n2nc(C)c3c(N)ncnc32)cc(Cl)c(F)c1[C@@H]1CNC(=O)C1,measured: QTcF change above 60 ms,previously treated B-cell malignancy,"oral, 10 mg once daily, baseline QTcF ≤450 ms",baseline: baseline,ECG observations,0%
O=C(O)CCc1ccc(O)cc1O,,human plasma,median,,plasma concentration,1.28 µM
CC(C)NCCCC[C@@H]1NC(=O)[C@H](Cc2ccc(O)cc2)NC(=O)[C@H](Cc2ccccc2)NC(=O)CC[C@H](C(=O)N[C@@H](CCCCNC(C)C)C(=O)N[C@@H](CCCCNC(=O)[C@H](CCC(=O)O)NC(=O)[C@H](CCC(=O)O)NC(=O)[C@H](CCC(=O)O)NC(=O)CN2CCN(CC(=O)O)CCN(CC(=O)O)CCN(CC(=O)O)CC2)C(N)=O)NC(=O)CNC(=O)[C@H](Cc2ccc3ccccc3c2)NC(=O)[C@@H](CCCNC(=N)N)NC1=O [gallium-68 labelled],,"mouse with JeKo-1 xenograft, liver","intravenous, 1 h",,tissue uptake,0.75 %ID/g
CNCCOC12CC3(C)CC(C)(CC(Cn4ncc(-c5ccc(N6CCc7cccc(C(=O)Nc8nc9ccccc9s8)c7C6)nc5C(=O)O)c4C)(C3)C1)C2,,"beagle dog, male, anaesthetised","intravenous bolus, 0.03 mg/kg, 180 min",baseline: baseline,heart rate change,1%
O=C1OC[C@H](Cc2cccc(O)c2)[C@H]1Cc1cccc(O)c1,,human plasma,"median, both sexes",,plasma concentration,0.389 µM
CNC(=O)c1ccc(-c2cnc3ncc(Cc4ccc5ncccc5c4)n3n2)cc1F,"CTCAE v4.0, any causality",human cancer patients,"oral, 600 mg twice daily, expansion cohort at RP2D",,back pain incidence (all grades),13%
Cc1ccc(Sc2ccccc2N2CCNCC2)c(C)c1,measured: postural dizziness,healthy adult women,"oral, 10 mg daily, 12 days",,participants with TEAE,0%
C[C@H]1[C@H](NC(=O)/C(=N\OC(C)(C)C(=O)O)c2csc(N)n2)C(=O)N1S(=O)(=O)O,starch gel membrane permeability,Gram-negative envelope surrogate,"200 µM, 20 min, pH 7.4",,amount permeated,1.8 nmol
O=C(COc1ccc(Cl)cc1)NC12CC(c3nnc([C@H]4C[C@@H](OC(F)(F)F)C4)o3)(C1)C2,,human both sexes,"oral, 200 mg once daily, 14 days",,drug-related TEAE participants,71.4%
COc1cc2c3c(n(CCCN4CCOCC4)c(=O)c2cc1OC)-c1cc2c(cc1C3=O)OCO2,,"Fischer 344 rats, female","intravenous bolus, 24 mg/m^2",,clearance,29.3 L/h/m²
C=CC(=O)NC1CCN(c2ncc3ncnc(Nc4ccc(Oc5ccc6c(c5)ncn6C)c(C)c4)c3n2)CC1,measured: gastrointestinal disorders (SOC),human male,"oral, dose not given, CTCAE on-treatment AEs",,adverse events incidence,0%
O=S(=O)(O)Oc1c(O)cccc1O,,human plasma,median,,plasma concentration,0.317 µM
N#CCNC(=O)c1ccc(-c2ccnc(Nc3ccc(N4CCOCC4)cc3)n2)cc1,,"healthy volunteers, plasma","dose not given, with: rifampin single-dose",baseline: compound alone,median half-life change,no effect
Cc1cc(C)c(CNC(=O)c2cc(Cl)c3c(c2C)O[C@@](C)([C@H]2CC[C@H](N(C)C)CC2)O3)c(=O)[nH]1,,"human, plasma","oral, 200 mg, cycle 1 day 1, mean",,AUCtau (unbound),0.499 µg·h/mL
C[C@H]1CN(C(=O)CC#N)[C@]12CCN(c1ncnc3[nH]ccc13)C2,,"healthy adults, plasma","oral, 12 mg single dose, mean",,t1/2,2.8 h
COc1ccc([C@@H]2CC(=O)c3c(O)cc(O)cc3O2)cc1O,,human plasma,"mean, both sexes",,plasma concentration,0.187 µM
[18F]c1ccc(-c2ccc3c(c2)[nH]c2ccncc23)cn1,ex vivo biodistribution,"APP/PS1 mouse, AD model, pancreas","intravenous, 30 min",,SUV,1.23 ± 0.033
N#Cc1ccc2c(c1)[C@H]1CCCN(C(=O)c3ccc4[nH]cnc4c3)[C@H]1C2,,human males,"80 mg, day 15",,total testosterone level,12.4 nmol/L
CCO[C@H]1CCN(Cc2c(OC)cc(C)c3[nH]ccc23)[C@H](c2ccc(C(=O)O)cc2)C1,,"human moderate hepatic impairment, plasma","oral, 200 mg single dose, geometric mean",,unbound half-life,19.6 h
O=S(=O)(O)Oc1cccc(O)c1O,,human plasma,mean,,plasma concentration,1.13 µM
CC(C)c1nc(CN(C)C(=O)N[C@@H](CCN2CCOCC2)C(=O)N[C@H](CC[C@H](Cc2ccccc2)NC(=O)OCc2cncs2)Cc2ccccc2)cs1,measured: Hallucinations,human,"oral, 150 mg",,drug-related TEAE incidence,0%
CC(C)(c1ccc(O)cc1)c1ccc(O)cc1,HPLC-MS,"zebrafish embryos, whole embryo","waterborne, 1 nM, 50 h, from 8 to 58 hpf",,uptake per embryo,~0.025 fmol
CCn1c(=O)c(-c2cc(NC(=O)Nc3ccccc3)c(F)cc2Br)cc2cnc(NC)cc21,measured: accidental overdose,"human, mild hepatic impairment","oral, 50 mg single dose",,participants with grade ≥ 3 TEAE,0%
CCc1cc(C(=O)NC)c2nccc(N3CCc4c(cc(Cn5ccnc5)cc4-c4cn(C)nc4C(F)(F)F)C3=O)c2c1,measured: MPV,Sprague Dawley rat,"oral, 50 mg/kg once daily, 7 days",baseline: vehicle,change in clinical chemistry or haematology parameter,0.93%
O=C1C[C@@H](c2ccc(O)cc2)Oc2cc(O[C@@H]3O[C@H](C(=O)O)[C@@H](O)[C@H](O)[C@H]3O)cc(O)c21,,human plasma,mean,,plasma concentration,0.71 µM
Cc1cc(Nc2cc3ncccc3c(N[C@@H]3C[C@H]4CC[C@@H](C3)N4CCC#N)n2)n[nH]1,,healthy human subjects,"oral, 1000 mg, 2 weeks, single ascending dose",,sneezing incidence,0%
COc1ccc([C@@H](O)c2cc(-c3ncnc4cc(N5CCOCC5)ccc34)c(F)cc2Cl)nn1,,"healthy volunteers, plasma","oral, 100 mg, oral suspension, fasted, median",,tlag,0 h
Cc1c2oc3c(C)ccc(C(=O)N[C@@H]4C(=O)N[C@H](C(C)C)C(=O)N5CCC[C@H]5C(=O)N(C)CC(=O)N(C)[C@@H](C(C)C)C(=O)O[C@@H]4C)c3nc-2c(C(=O)N[C@@H]2C(=O)N[C@H](C(C)C)C(=O)N3CCC[C@H]3C(=O)N(C)CC(=O)N(C)[C@@H](C(C)C)C(=O)O[C@@H]2C)c(N)c1=O,LC-MS,"children with cancer, plasma","dose not given, 1 h",,minimum plasma concentration,3.3 µg/L
CC(C)(C(=O)N1CCOc2c(C#N)cncc2C1)C(F)F,measured: gingival bleeding,"human, both sexes","oral, 10 mg once daily, 14 days, multiple ascending dose",,subjects with TEAE,0%
CO[C@@H]1[C@H](O)[C@@H](CO)O[C@H]1n1c([N+](=O)[O-])nc2c(=O)[nH]c(N)nc21,"depurination, RP-HPLC",citrate-phosphate buffer 0.5 mM,"2820 min, pH 2, 37 °C",,nucleoside remaining fraction,0.115
C[C@H](O)C(=O)C1=Nc2c(nc(N)[nH]c2=O)NC1,,healthy human volunteers,"oral, 20 mg/kg, 4 days, monotherapy",baseline: subjects,drug-related TEAE incidence,0%
COc1cccc(-c2n[nH]c(SCc3ccccn3)n2)c1OC,,"Sprague-Dawley rat, plasma","oral, 10 mg/kg",baseline: female over male,AUC(0-last) ratio,0.53
OCCOCc1ccc(-c2noc(-c3ccc(OCC[18F])c(C(F)(F)F)c3)n2)cc1,,"Macaca mulatta, liver",male phantom OLINDA/EXM,,absorbed radiation dose,0.12 mSv/MBq
CN(CCCN1CCN(C(=O)CN2CCN(CC(=O)[O-])CCN(CC(=O)[O-])CCN(CC(=O)[O-])CC2)CC1)c1ccc2nccc(C(=O)NCC(=O)N3CC(F)(F)C[C@H]3C#N)c2c1.[68Ga+3],,"mice, HT-1080.hFAP and HT-1080 wild-type xenografts, spleen","iv, 500 pmol, 1 h post injection",,uptake,0.3 ± 0.1 %IA/g
O=C(Nc1cnccc1Cl)N1CCN(Cc2ccc3c(c2)OC(F)(F)O3)CC1,,"healthy young women, plasma","oral, 100 mg once daily, day 10",,t1/2,10.9 h
Cc1cc(-c2nccc3c2ccn3CC(=O)Nc2ccc(-c3cnccn3)cn2)ccn1,,human,"MAD part, 20 mg once daily",,subjects with any IMP-related TEAE,33.3%
COc1cc(Nc2ncc3c(n2)-c2ccc(Cl)cc2C(c2c(F)cccc2OC)=NC3)ccc1C(=O)O,"measured: increased ALT, grade 1","cancer patients, phase 1/2","oral, dose not given, with: pembrolizumab",,patients with adverse event,21%
O=C(O)[C@H]1O[C@@H](Oc2c(-c3ccc(O)cc3)oc3cc(O)cc(O)c3c2=O)[C@H](O)[C@@H](O)[C@@H]1O,,human plasma,mean,,plasma concentration,1.25 µM
Nc1ncn([C@H]2C[C@H](O)[C@@H](CO)O2)c(=O)n1,,mouse plasma,"1.2 ng/mL, -80 °C, three freeze-thaw cycles, with THU",,mean deviation from nominal,9.78%
Cc1ccc([C@@H]2O[C@H](CO)[C@@H](O)[C@H](O)[C@H]2O)cc1Cc1ccc(-c2ccc(F)cc2)s1,,Japanese type 2 diabetes patients,"400 mg, day 3, 24 h urine collection",baseline: baseline,urinary calcium excretion change,-19.1 mg
NC1(C(=O)N[C@@H](CCO)c2ccc(Cl)cc2)CCN(c2nc[nH]c3nccc2-3)CC1,,metastatic CRPC patients,"480 mg b.i.d., grade 3 to 4, treatment-related, with: enzalutamide 160 mg daily",,incidence of Vomiting,0%
COC(=O)c1ccc2c(c1)NC(=O)/C2=C(\Nc1ccc(N(C)C(=O)CN2CCN(C)CC2)cc1)c1ccccc1,,"healthy volunteers, plasma","oral, 150 mg, with: pirfenidone",,AUClast geometric LS mean,0.167 µg·h/mL
CN(C)[C@@H]1C(O)=C(C(N)=O)C(=O)[C@@]2(O)C(O)=C3C(=O)c4c(O)cccc4[C@@](C)(O)[C@H]3C[C@@H]12,starch gel membrane permeability,Gram-negative envelope surrogate,"200 µM, 60 min, pH 7.4",,amount permeated,3.07 nmol
O=C(N[C@H](Cc1c[nH]c2ccccc12)C(=O)Nc1ccncc1)c1ccc(N2CCN(c3ccc(F)cc3F)CC2)cc1F,,"Swiss Webster mouse, female, muscle","oral, 50 mg/kg, 8 h, 20% Kolliphor vehicle",,concentration,3.72 µM
Cc1nc(-c2ccc(OCC(C)C)c(C#N)c2)sc1C(=O)O,,"human, plasma","oral, 40 mg once daily, with: verinurad 10 mg",,AUC(0-24),4.9 µg·h/mL
